Measured values collected from several papers.
Lines come from different studies, so protocols differ. ± marks the error that the study gave.

For `CO[C@@H]1[C@H](O)[C@@H](COP(=O)([O-])OP(=O)(O)CP(=O)(O)OP(=O)(O)OC[C@H]2O[C@@H](n3cnc4c(=O)[nH]c(N)nc43)[C@H](O)[C@@H]2O)O[C@H]1n1c[n+](C)c2c(O)nc(N)nc21`, “relative translation efficiency” read 1.39 ± 0.33 (rabbit reticulocyte lysate; 1 h, luciferase mRNA capped with compound; relative to: m7GpppG-capped mRNA).
For `O=C(O)c1ccc(/C=C2\SC(=S)N(c3cccc(C(F)(F)F)c3)C2=O)cc1`, “noncanonical NLRP3 activation” read “decreased” (mouse BMDM; concentration not given, together with: cytosolic LPS).
`C[n+]1cn(C2OC(COP(=O)(O)OP(=O)([O-])OP(=O)(O)OCC3OC(n4cnc5c(=O)[nH]c(N)nc54)C(O)C3O)C(O)C2O)c2nc(NCc3ccc(Cl)cc3)[nH]c(=O)c21` (stereo not shown) — result for “relative translation efficiency”: 3.52 ± 0.73 (cap-dependent translation; rabbit reticulocyte lysate; relative to: m7GpppG-capped mRNA).
Under “decrease in luciferase activity”, `COc1ccc2c(c1)c1c(C)c3cnccc3c(C)c1n2CCCN1CCN(C)CC1` is recorded as ~60% (WT-NHE luciferase construct; PDGFR-β promoter reporter; IC50 or 50% of IC50, 24 h).
For `NS(=O)(=O)Nc1ncnc(OCCOc2ncc(Br)cn2)c1-c1ccc(Br)cc1`, the Vmax was 543 ± 33 pmol/min/mg (metabolite formation; male Sprague-Dawley rat, liver microsomes; 150 mg/kg daily for 4 weeks).
`C[n+]1cn(C2OC(COP(=O)([O-])OP(=O)(O)OP(=O)(O)OCC3OC(n4cnc5c(=O)[nH]c(N)nc54)C(O)C3O)C(O)C2O)c2nc(NCc3cc(-c4ccccc4)no3)[nH]c(=O)c21` (stereo not shown): “relative translation efficiency” 3.51 ± 0.82 (cap-dependent translation; rabbit reticulocyte lysate; relative to: m7GpppG-capped mRNA).
`CO[C@@H]1[C@H](O)[C@@H](COP(=O)(O)OP(=O)([O-])OP(=O)(O)OP(=O)(O)OC[C@H]2O[C@@H](n3cnc4c(=O)[nH]c(N)nc43)[C@H](O)[C@@H]2O)O[C@H]1n1c[n+](C)c2c(O)nc(N)nc21` — result for “relative translation efficiency”: 1.77 ± 0.18 (rabbit reticulocyte lysate; 1 h, luciferase mRNA capped with compound; relative to: m7GpppG-capped mRNA).
With `CC[C@H](C)[C@H](NC(=O)[C@H](Cc1ccc(O)cc1)NC(=O)[C@@H](NC(=O)[C@H](CCCNC(=N)N)NC(=O)[C@@H](N)CC(=O)O)C(C)C)C(=O)N[C@@H](Cc1c[nH]cn1)C(=O)N1CCC[C@H]1C(=O)O` the Vmax was 223 nmol/min/mg protein (angiotensin peptidase, sheep CSF; substrate; CSF of BMX sheep; together with: inhibitor cocktail).
`COc1cccc(OC)c1OCCCn1cc(CCCNc2nc3c(c(=O)[nH]2)[n+](C)cn3C2OC(COP(=O)(O)OP(=O)([O-])OP(=O)(O)OCC3OC(n4cnc5c(=O)[nH]c(N)nc54)C(O)C3O)C(O)C2O)nn1` (stereo not shown): “relative inhibitory potency” 6.9 (cap-dependent translation, inhibitor; rabbit reticulocyte lysate; concentration not given; relative to: m7GpppG).
For `CO[C@@H]1[C@H](O)[C@@H](COP(=O)(O)OP(=O)([S-])OP(=O)(S)OC[C@H]2O[C@@H](n3cnc4c(=O)[nH]c(N)nc43)[C@H](O)[C@@H]2O)O[C@H]1n1c[n+](C)c2c(O)nc(N)nc21` (mixture of isomers), “cap-dependent translation efficiency” read 3.57 ± 0.95 (rabbit reticulocyte lysate; relative to: m7GpppG-capped mRNA).

For quick reference, copied from above:
For `CO[C@@H]1[C@H](O)[C@@H](COP(=O)([O-])OP(=O)(O)CP(=O)(O)OP(=O)(O)OC[C@H]2O[C@@H](n3cnc4c(=O)[nH]c(N)nc43)[C@H](O)[C@@H]2O)O[C@H]1n1c[n+](C)c2c(O)nc(N)nc21`, “relative translation efficiency” read 1.39 ± 0.33 (rabbit reticulocyte lysate; 1 h, luciferase mRNA capped with compound; relative to: m7GpppG-capped mRNA).
